Measurements of several laboratories.
Compare with care: the assays were run in different laboratories.
Organism: Klebsiella pneumoniae

The MIC of `CC[C@H](C)[C@H](NC(=O)[C@H](Cc1c[nH]c2ccccc12)NC(=O)[C@H](CCCNC(=N)N)NC(=O)[C@@H]1CCCN1C(=O)[C@H](CCCNC(=N)N)NC(=O)[C@@H]1CCCN1C(=O)[C@H](CC(C)C)NC(=O)[C@H](Cc1ccc(O)cc1)NC(=O)[C@@H]1CCCN1C(=O)[C@@H]1CCCN1C(=O)[C@H](CCCCN)NC(=O)[C@H](CC(=O)O)NC(=O)[C@@H](N)C(C)C)C(=O)N[C@@H](CCCNC(=N)N)C(=O)N[C@H](CCCNC(=N)N)C(=O)N[C@H](C(=O)N[C@@H](Cc1ccc(O)cc1)C(=O)N[C@@H](CC(N)=O)C(=O)N[C@H](CCCNC(=N)N)C(N)=O)[C@@H](C)CC` is reported as 4 µg/mL (broth microdilution; DSM 681; 18 h, 37 °C, 25% MHB2).
For `CCCCCCCCCCCCCCCCCCn1cc(CN(CCC(=O)NCCN(CCC(=O)NCCN(CCC(=O)NCCN(C)C)CCC(=O)NCCN(C)C)CCC(=O)NCCN(CCC(=O)NCCN(C)C)CCC(=O)NCCN(C)C)CCC(=O)NCCN(CCC(=O)NCCN(CCC(=O)NCCN(C)C)CCC(=O)NCCN(C)C)CCC(=O)NCCN(CCC(=O)NCCN(C)C)CCC(=O)NCCN(C)C)nn1`, the MIC was > 96 µg/mL (ATCC 2146 NDM-1, LB broth; 18 h).
`CC[C@H](C)[C@H](NC(=O)[C@H](CCCCN)NC(=O)[C@H](CCCNC(=N)N)NC(=O)[C@H](Cc1c[nH]c2ccccc12)NC(=O)[C@@H](NC(=O)[C@H](CCCCN)NC(=O)[C@H](CCCNC(=N)N)NC(=O)[C@@H](NC(=O)[C@H](CCCNC(=N)N)NC(=O)[C@H](CCCCN)NC(=O)[C@H](CCCNC(=N)N)NC(=O)[C@H](CC(C)C)NC(=O)[C@H](CCCNC(=N)N)NC(=O)[C@H](CO)NC(=O)[C@H](Cc1ccccc1)NC(=O)[C@H](CCCNC(=N)N)NC(=O)CN)[C@@H](C)CC)C(C)C)C(=O)NCC(=O)N1CCC[C@H]1C(=O)N[C@H](C(=O)N[C@@H](C)C(=O)NCC(=O)N1CCC[C@H]1C(=O)N[C@H](C(=O)N[C@H](C(=O)NCC(=O)N[C@@H](Cc1c[nH]cn1)C(=O)N[C@@H](Cc1ccccc1)C(=O)NCC(=O)O)[C@@H](C)CC)[C@@H](C)CC)[C@@H](C)CC` has an MIC of 8 µg/mL (CLSI agar dilution; ATCC 13883; 20 h, 37 °C).
`C[C@H](N)[C@@H](CCCCCCCCCCCCCCC(=O)CCCCCCC[C@@H](O)[C@@H](C)N)O[C@@H]1O[C@H](CO)[C@H](O)[C@H](O)[C@H]1O` has an MIC of 7.73 µM (resazurin).
`CCCCCCCC(=O)N[C@@H](CCN)C(=O)N[C@H](C(=O)N[C@@H](CCN)C(=O)N[C@H]1CCNC(=O)[C@H]([C@@H](C)O)NC(=O)[C@H](CCN)NC(=O)[C@H](CCN)NC(=O)[C@H](Cc2ccc(Br)cc2)NC(=O)[C@@H](CC(C)C)NC(=O)[C@H](CCN)NC1=O)[C@@H](C)O` has an MIC of 4 to 8 µg/mL (broth microdilution; ATCC 13883, colistin-susceptible).
`COc1ccc2ccc(O)c(/C=N/[C@H]3CCCC[C@H]3/N=C/c3ccccc3O)c2c1` has an MIC of > 40 µM (bacterial growth, broth microdilution; carbapenem-resistant clinical isolate).
`CC[C@H](C)[C@H](NC(=O)[C@H](CCCNC(=N)N)NC(=O)[C@@H](NC(=O)[C@@H](NC(=O)[C@H](CCCNC(=N)N)NC(=O)[C@H](CCCCN)NC(=O)[C@H](Cc1ccccc1)NC(=O)[C@H](CCCNC(=N)N)NC(=O)[C@H](CCCCN)NC(=O)[C@@H](NC(=O)[C@@H](N)CCCCN)[C@@H](C)CC)[C@@H](C)CC)C(C)C)C(=O)N[C@@H](CCCCN)C(=O)N[C@@H](Cc1ccccc1)C(=O)N[C@@H](CC(C)C)C(=O)N[C@@H](CCCNC(=N)N)C(=O)N[C@H](C(=O)N[C@H](C(=O)N[C@@H](CCCNC(=N)N)C(=O)N[C@@H](CCCNC(=N)N)C(N)=O)C(C)C)C(C)C` has an MIC of 7.5 µg/mL (broth microdilution; 10145).
For `CC[C@H](C)[C@H](N)C(=O)N[C@@H](CCCNC(=N)N)C(=O)N[C@H](C(=O)N[C@@H](Cc1c[nH]c2ccccc12)C(=O)N[C@@H](CCCCN)C(=O)N[C@@H](CCCCN)C(=O)N[C@H](C(=O)N[C@H](C(=O)N[C@@H](CCCNC(=N)N)C(=O)N[C@@H](CCCCN)C(=O)N[C@@H](Cc1c[nH]c2ccccc12)C(=O)N[C@@H](CCCCN)C(=O)N[C@@H](C)C(=O)N[C@H](C(=O)N[C@@H](Cc1c[nH]c2ccccc12)C(=O)N[C@@H](Cc1c[nH]cn1)C(N)=O)[C@@H](C)CC)C(C)C)[C@@H](C)CC)C(C)C`, the MIC was 25 µM (broth dilution; ATCC 700603).
For `CC(C)[C@H](NC(=O)C(NC(=O)CC[C@H](N)C(=O)O)C(O)C(N)=O)C(=O)N(C)CC(=O)N[C@H](Cc1c[nH]c2ccc([N+](=O)[O-])cc12)C(=O)NC[C@@H]1NC(=O)[C@@H](Cc2c[nH]c3ccc([N+](=O)[O-])cc23)NC1=O` (stereo partly shown), the MIC was 200 µM (MGH78578; 18 h, 37 °C).
The MIC of `CC1(C)[C@H](NC(=O)/C(=N\OCc2c(Cl)cccc2Cl)c2nsc(N)n2)C(=O)N1OS(=O)(=O)O` is reported as 8 µg/mL (agar dilution; 09-20, NDM-1).
